Measurements collected from several papers.
Parts stem from different laboratories: compare values within a part only. Substitutions count along the parent as printed.

Sample 1
Target: CCNF, cyclin fold, Cln2 fusion (human)
Method: yeast growth competition, sequencing
Sample: yeast
Setting: strong parent motif
Baseline: not given
Direction: higher = stronger binding
Parent: E2F1 docking peptide (human); PPVKRRLDLETDH
Variant | normalised enrichment score
PPVWRRLDLETDH [K4W] | 3.9
PPVKRRLDLETDY [H13Y] | 7.02
PPVKRRVDLETDH [L7V] | 0.0938
NPVKRRLDLETDH [P1N] | 6.99
PFVKRRLDLETDH [P2F] | 6.66
PPVKRWLDLETDH [R6W] | 4.28
PPVKRRLDLCTDH [E10C] | 7.45
PPVKRILDLETDH [R6I] | 2.42
PPVKGRLDLETDH [R5G] | 1.07
PPKKRRLDLETDH [V3K] | 0.376
PPVKRRLDLETDD [H13D] | 5.11
PPVKRRLDLMTDH [E10M] | 6.3
PPVKRCLDLETDH [R6C] | 4.75
PPVKRMLDLETDH [R6M] | 4.05
PPVKRRYDLETDH [L7Y] | 0.0693

Sample 2
Target: Sal-like protein 4, full length isoform B (SALL4, Homo sapiens, UniProt Q9UJQ4-2, residues 1-616)
Method: universal PBM
Form: double-stranded DNA, one strand shown
Sample: in vitro
Tested at: not given
Setting: 8-mer, flanks averaged, mean of replicates
Direction: higher = stronger binding
Construct (chain): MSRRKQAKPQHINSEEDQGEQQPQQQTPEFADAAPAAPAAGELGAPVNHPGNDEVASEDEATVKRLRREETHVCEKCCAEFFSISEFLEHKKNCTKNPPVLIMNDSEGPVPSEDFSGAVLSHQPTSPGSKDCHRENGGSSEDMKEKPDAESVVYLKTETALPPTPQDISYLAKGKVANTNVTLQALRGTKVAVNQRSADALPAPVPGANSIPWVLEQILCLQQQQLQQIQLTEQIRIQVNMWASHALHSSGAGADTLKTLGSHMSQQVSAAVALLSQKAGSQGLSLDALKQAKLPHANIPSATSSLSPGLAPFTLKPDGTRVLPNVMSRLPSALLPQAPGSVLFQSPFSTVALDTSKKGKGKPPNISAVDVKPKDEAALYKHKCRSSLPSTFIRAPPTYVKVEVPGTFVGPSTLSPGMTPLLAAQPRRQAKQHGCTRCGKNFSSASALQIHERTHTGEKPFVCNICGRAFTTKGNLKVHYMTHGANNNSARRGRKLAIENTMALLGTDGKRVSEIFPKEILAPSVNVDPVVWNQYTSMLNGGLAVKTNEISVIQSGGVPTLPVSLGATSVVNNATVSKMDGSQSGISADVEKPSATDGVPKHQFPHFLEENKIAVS
Sequence | E-score
GGTCGACC | -0.211
GCTGCAGA | -0.181
CGGGCAAG | -0.197
CCCGAAGG | -0.158
CCCAGGTA | -0.0641
CGTCCAGC | -0.137
CTTCCATA | 0.202
ATACCAGA | 0.123
GCACGCCC | -0.339
GCGACGAA | -0.0478
AACGGCGG | -0.211
TAATGGCA | 0.138
AGCTAACT | 0.0102
CGATATCG | 0.163
CCTTATCG | 0.175
CCCCTAAG | -0.207

Sample 3
Target: Fragile X messenger ribonucleoprotein 1, C-terminal low-complexity region (Fmr1, Mus musculus, UniProt P35922)
Method: RNA Bind-n-Seq
Form: RNA
Sample: in vitro
Tested at: 200 nM
Setting: whole 134-nt RNA, ends assumed
Added: 150 mM KCl
Baseline: input library
Direction: higher = stronger binding
Sequence | log2 enrichment
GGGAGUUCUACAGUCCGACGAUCCACAGACAACACGCACCCACACAGACACAGAGGGAAGGGGUUGGGAUGGGGACAGGUUGCACAGCAGGGCGGGGUAGGACCCCAGCCCCUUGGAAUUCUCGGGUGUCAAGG | 1.11
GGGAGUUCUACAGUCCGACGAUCGCAGGAAGUAUAAACAAAUGGAAAUGCUUCGGAUAGUGGCAGGGGUGGGGGUUGCUAAGGAAAGGGUGGGAUGGGAGUGGGUAAAGAGUUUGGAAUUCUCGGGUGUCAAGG | 0.392
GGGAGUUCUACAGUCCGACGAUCGCAGGAAGUAAAAACAAAUGGAAAUGCUUCGGAUAGUGGCAGGGGUGGGGGUUGCUAAGGAAAGGGUGGGAUGGGAGUGCGUAAAGAGUUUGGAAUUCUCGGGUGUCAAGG | 0.296
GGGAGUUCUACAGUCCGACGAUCCACAGACAAAACGCACCCACACAGACACAGAGGGAAGGGGUUGGGAUGGGGACAGGGUGCACAGCAGGGCGGGGUAGGACCCCAGCCCCUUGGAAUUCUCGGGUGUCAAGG | 1.2
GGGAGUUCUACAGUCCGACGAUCAAGUCCUGUGCUACACAUCGUAUGUACCGAAUCGGGAAAAGGAAAAGGGAAAAGGGGAAAGUAUUAUGUUACGCCGUUCGGAUCUGCACUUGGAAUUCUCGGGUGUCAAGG | -0.253
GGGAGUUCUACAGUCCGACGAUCCAAGUCCUGUGCUACACAUCGUAUGUACCGAAUCGGUUUUUUUGGAAAGGUUUGGAAAGUAUUAUGUUACGCCGUUCGGAUCUGCACUUCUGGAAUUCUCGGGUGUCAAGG | -1.03
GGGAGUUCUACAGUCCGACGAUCCAAGUCCUGUGCUACACAUCGUAUGUACCGAAUCGGGGUUUGGGUUUGGUUUGGGGAAAGUAUUAUGUUACGCCGUUCGGAUCUGCACUUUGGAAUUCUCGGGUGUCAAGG | 0.377
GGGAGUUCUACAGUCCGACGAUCUUAAGUGUAUUGGAGCCCCAAGUUCUCAAUUAUUUGAGCCUCCGGGCGACAGAGCAAGAAAAGGUGAGUGGAUAGCGCAGGCAUAUUGGUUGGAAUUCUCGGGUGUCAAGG | 0.355

Sample 4
Target: PABPC1L2, full length, GST fusion (mouse, UniProt A0ABA7IW68)
Method: RNAcompete
Form: RNA
Sample: in vitro
Tested at: 20 nM
Setting: 7-mer, probes averaged, single round
Baseline: mean of 7-mers
Direction: higher = stronger binding
Target sequence (chain): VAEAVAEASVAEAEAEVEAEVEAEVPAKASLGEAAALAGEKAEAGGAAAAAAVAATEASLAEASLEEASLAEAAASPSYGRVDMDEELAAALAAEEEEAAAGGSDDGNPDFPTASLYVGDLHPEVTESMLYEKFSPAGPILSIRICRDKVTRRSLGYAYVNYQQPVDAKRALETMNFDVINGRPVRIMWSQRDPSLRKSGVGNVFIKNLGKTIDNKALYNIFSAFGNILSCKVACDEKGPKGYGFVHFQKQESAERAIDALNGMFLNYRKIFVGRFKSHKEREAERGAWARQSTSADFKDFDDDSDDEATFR
Sequence | 7-mer Z-score
CGACAAU | 0.0895
UAGUGAU | -0.353
UAAAACG | 2.05
CCGAGUU | -0.315
UUCCCAC | -0.445
UGAGUUC | -0.394
UCACUGU | -0.367
AGUUAGU | -0.2
AGCCUCU | -0.414
GAUAGCG | -0.195
CUGUGGC | -0.171
CGUUUAG | -0.358

Sample 5
Target: ABI1, truncated, D143A, DHFR fusion (Arabidopsis thaliana)
Method: DHFR PCA, deep sequencing
Sample: yeast
Setting: methotrexate growth selection, single substitutions
Added: (+)-ABA 0.0091 µM
Baseline: wild-type fitted maximum
Direction: higher = stronger binding
Parent: PYL1, truncated, DHFR fusion (Arabidopsis thaliana); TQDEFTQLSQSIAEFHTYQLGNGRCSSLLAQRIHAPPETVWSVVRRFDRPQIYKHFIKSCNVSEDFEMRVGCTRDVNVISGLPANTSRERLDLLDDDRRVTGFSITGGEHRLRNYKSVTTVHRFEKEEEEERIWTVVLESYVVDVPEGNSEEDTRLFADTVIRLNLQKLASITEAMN
Variant | relative binding score
S26N | -1.76%
R90Y | 1.36%
T106F | 4.68%
S87E | -1.66%
V100W | -4.47%
R45D | -2.53%
T73G | -0.935%
R90Q | 4.55%
V121T | -3.38%
T154D | -3.19%
V161G | -0.191%
N77V | 61.2%
Q31S | 0.682%

Sample 6
Target: Hepatocyte nuclear factor 3-alpha (Foxa1, Mus musculus, UniProt P35582, residues 1-468, full length assumed)
UniProt P35582, sequence (whole entry, looked up): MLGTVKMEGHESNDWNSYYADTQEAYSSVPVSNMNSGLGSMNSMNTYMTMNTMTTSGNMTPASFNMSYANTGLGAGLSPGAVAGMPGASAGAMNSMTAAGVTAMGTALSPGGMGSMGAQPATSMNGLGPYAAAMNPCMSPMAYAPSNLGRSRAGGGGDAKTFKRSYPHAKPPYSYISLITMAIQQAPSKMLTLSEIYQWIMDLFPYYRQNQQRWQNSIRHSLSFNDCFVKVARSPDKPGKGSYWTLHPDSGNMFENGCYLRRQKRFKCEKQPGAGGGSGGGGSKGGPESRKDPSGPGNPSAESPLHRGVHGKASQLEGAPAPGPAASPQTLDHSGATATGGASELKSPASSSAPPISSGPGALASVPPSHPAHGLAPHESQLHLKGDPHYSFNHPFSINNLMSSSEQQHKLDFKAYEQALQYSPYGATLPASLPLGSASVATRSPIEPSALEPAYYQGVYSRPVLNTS
Method: EMSA with sequencing
Form: double-stranded DNA, one strand shown
Sample: in vitro
Tested at: 10 and 20 nM
Setting: whole designed probe, mean of two concentrations, ends assumed
Baseline: negative control set to 0
Direction: higher = stronger binding
Sequence | normalised bound fraction
GTGAGCGGTGCCCATTGATGGGGAACCTGCTTTATTAGTTACATGAGTTGGGCAAAACCTTTTGGAATAGACCAGTGTCACCAAGACAACAGGACGGTTATAGAAAGGCAGAAAAACAATGTAAACAAACATTTTATAAGCATAAATAATAATAGTTATTCTTCTATATACATTCAGTGTCTCTAAGCAGATCCAAAGATTTGCCAAGTTTTAATGAGATTTCACTGGGATCGTGGGGAC | 0.467 ratio
GTGAGCGGTGCCCATTGATGGGGAACCTATTGTCAGATATAACCAGAAAAAAATAGAATTTTAAGTGAGCAGGATAACTTAGTTAAACTAACCAAACATAGTGTTAGCTGTTAGAGAAATGTAAACATGGAAATAGGCAAACAGGGAAGTGTGTGGAGTTTCTGTTTCCTTTTCAAAATATCTGTTTGAGCTGGGGTTGAGAGAGAACACTAGGCTTCATTTCACTGGGATCGTGGGGAC | 0.433 ratio
GTGAGCGGTGCCCATTGATGGGGAACATGTAGTAATGGATTGGAGTTGGAGATATCAGTATGAATTCATGCTTAGTGTGATATAGACAGAAATGTATTTATAGATATGTTTATATATATGTCAATATACACATATATATTTCCTTGCTATGTCAGCTGAGAAGGCATAGAAACAACAACAACTCAGTAGCAGTGAGCACCCTAGTGCCCAGATCTTGGTTTTCACTGGGATCGTGGGGAC | 0.24 ratio
GTGAGCGGTGCCCATTGATGGGGAACTTTTCTGCCGGCAGTGCTTCTAGCAGTTGGGAGAATAAACCCCTCATTCCTGAGGGGAGCCTTGGTGGCCCCTCGCAGTGTTTACCATGTTAAGTAAACATGGTAGGGTTGCTGAAGATTAGAGACGCCACAAAGAGGAGTGGGTTTGGGGAAGGCGATGAGCTCCATTTTGCACATAGTGAGTGTGAGGTGTTTTCACTGGGATCGTGGGGAC | 0.492 ratio

Sample 7
Target: UBE2J1 UBC core domain (UniProt Q9Y385)
Method: yeast two-hybrid
Sample: yeast
Setting: mostly zero background
Baseline: not given
Direction: higher = stronger interaction
B1: RNF170 RING domain (UniProt Q96K19); chain TRQQFYTDMYCPICLHQASFPVETNCGHLFCGACIIAYWRYGSWLGAISCPICRQTVTLLLTVF
Construct (chain): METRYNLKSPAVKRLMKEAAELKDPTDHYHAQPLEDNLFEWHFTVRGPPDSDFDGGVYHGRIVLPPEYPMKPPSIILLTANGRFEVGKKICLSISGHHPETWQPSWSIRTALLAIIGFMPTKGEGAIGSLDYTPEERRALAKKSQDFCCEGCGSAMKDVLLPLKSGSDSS
Molecule | lacZ reporter activity
B1 (RNF170 RING domain) | 0
RLTMMWEEVTCPICLDPFVEPVSIECGHSFCQECISQVGKGGGSVCPVCRQRFLLKNLRP (TRIM21 RING domain (UniProt P19474)) | 0
FPEHFVKSISCQICEHILADPVETNCKHVFCRVCILRCLKVMGSYCPSCRYPCFPTDLES (RAG1 RING domain (UniProt P15918)) | 0
YWAMDSTFELCKICAESNKDVKIEPCGHLLCSCCLAAWQHSDSQTCPFCRCEIKGWEAVS (CBLC RING domain (UniProt Q9ULV8)) | 0
QLRRLQEERTCKVCMDKEVSVVFIPCGHLVVCQECAPSLRKCPICRGIIKGTVRTF (BIRC2 RING domain (UniProt Q13490)) | 0
QHHELTSLFECPVCFDYVLPPILQCQAGHLVCNQCRQKLSCCPTCRGALTPSIRNL (SIAH2 RING domain (UniProt O43255)) | 0
DAIPSLSECQCGICMEILVEPVTLPCNHTLCKPCFQSTVEKASLCCPFCRRRVSSWTRYH (RNF168 RING domain (UniProt Q8IYW5)) | 0
EDEVSDNSAECVVCLSDVRDTLILPCRHLCLCNTCADTLRYQANNCPICRLPFRALLQIR (RNF157 RING domain (UniProt Q96PX1)) | 0
VTLSLTLPITCHICLGKVRQPVICINNHVFCSICIDLWLKNNSQCPACRVPITPENPCK (OBI1 RING domain (UniProt Q5W0B1)) | 0

Some of these lines once more (sample 2):
Sequence | E-score
CGGGCAAG | -0.197
CCCGAAGG | -0.158
CCCAGGTA | -0.0641
CGTCCAGC | -0.137
CTTCCATA | 0.202
ATACCAGA | 0.123
GCACGCCC | -0.339
GCGACGAA | -0.0478
AACGGCGG | -0.211
TAATGGCA | 0.138
AGCTAACT | 0.0102
